Literature values, collected from citations in different studies.
Protocols differ between the studies behind these lines. Values joined by “and” are separate records of one study, mostly repeats; a detail may differ. ± gives the spread as reported.
Organism: Plasmodium falciparum

| SMILES | test | system | conditions | how to read | quantity | value |
| --- | --- | --- | --- | --- | --- | --- |
| Cc1cc(Cl)ccc1[C@H]1N[C@H](C(=O)O)Cc2c1[nH]c1ccccc21 | parasite growth | Dd2 |  |  | IC50 | 700 ± 90 nM |
| COc1cc2[nH]c(C)c(-c3ccc(Oc4ccc(OC(F)(F)F)cc4)cc3)c(=O)c2cc1Cl | parasite growth |  |  |  | EC50 | ~4 nM |
| Cn1cc2c3c1C(=O)c1[nH]cc(-c4ccc(O)cc4)c1C3=[N+](C)CC2 | parasite growth | Dd2, multidrug-resistant |  |  | IC50 | < 50 nM |
| COc1ccc([C@H]2N[C@H](C(=O)O)Cc3c2[nH]c2ccccc32)c(OC)c1 | parasite growth | Dd2 |  |  | IC50 | > 20000 nM |
| CCN(CCNc1ccnc2cc(Cl)ccc12)CCNS(=O)(=O)c1cccc2c(N(C)C)cccc12 | parasite growth | HB3, chloroquine-sensitive |  |  | IC50 | 17.5 nM |
| CC(=O)N(O)CCCP(=O)(O)O |  | fresh clinical Cameroonian isolates |  |  | IC50 | 118 nM |
| Cc1ccc([C@H]2N[C@H](C(=O)O)Cc3c2[nH]c2ccccc32)c(Cl)c1 | parasite growth | Dd2 |  |  | IC50 | 410 ± 40 nM |
| Cc1c(-c2ccc(Cc3ccc(OC(F)(F)F)cc3)cc2)[nH]c2cccc(F)c2c1=O | parasite growth |  |  |  | EC50 | ~16 nM |
| CCCc1cc2c(o1)C(=O)c1ccccc1C2=O | parasite growth | W2 chloroquine-resistant |  |  | IC50 | 11600 nM and 11000 nM |
| Cc1[nH]c2ccccc2c1C1CCN(CC2CCC(NC(=O)/C=C/c3ccc(Cl)c(Cl)c3)CC2)CC1 (stereo not drawn) | parasite development | Dd2 | 2 µM |  | inhibition | > 90% |
| O=C(O)[C@@H]1Cc2c([nH]c3ccccc23)[C@@H](c2ccccc2)N1 | parasite growth | Dd2 |  |  | IC50 | > 10000 nM |
| Cc1c(-c2ccc(Cc3ccc(OC(F)(F)F)cc3)cc2)[nH]c2cccc(F)c2c1=O |  | cyt b F264L |  | baseline: wild type | EC50 fold change | 3 to 4 fold |

For quick reference, copied from above:
| SMILES | test | system | conditions | how to read | quantity | value |
| --- | --- | --- | --- | --- | --- | --- |
| O=C(O)[C@@H]1Cc2c([nH]c3ccccc23)[C@@H](c2ccccc2)N1 | parasite growth | Dd2 |  |  | IC50 | > 10000 nM |
| COc1ccc([C@H]2N[C@H](C(=O)O)Cc3c2[nH]c2ccccc32)c(OC)c1 | parasite growth | Dd2 |  |  | IC50 | > 20000 nM |
